Experimental data from different studies.
Lines come from different studies, so protocols differ. “And” joins repeats or separate records; there may be more than shown. ± gives the spread as reported.

Structure (SMILES) | target or system | assay | system | conditions | how to read | quantity | value
COc1cccc(OC)c1-c1cc(C(=O)NC2(C(=O)O)C3CC4CC(C3)CC2C4)nn1-c1ccc(C(=O)N(C)CCCN(C)CCCN(C)C(=O)CN2CCN(CC(=O)[O-])CCN(CC(=O)[O-])CCN(CC(=O)[O-])CC2)cc1C(C)C.[177Lu+3] (stereo not shown) | – | – | mouse, HT-29 xenograft | 168 h post injection, biodistribution | relative to: tumour over kidney uptake | tumour-to-kidney ratio | 13.7
COc1ccc2[nH]c([S+]([O-])Cc3ncc(C)c(OC)c3C)nc2c1 (stereo not shown) | – | – | healthy Chinese volunteers, plasma | oral, 20 mg, fasted, CYP2C19 intermediate metabolizers | – | AUC(0-inf) | 0.954 ± 0.547 µg·h/mL
CCn1c(C(=O)N(C2CC2)C2CC2)cc2c3c(ncn3C)c(Nc3cc(C)n(C)n3)nc21 | – | – | cancer patients | oral, 200 mg twice daily, day 15, 336.0 h | – | plasma concentration | 4.74 µg/mL
CC(C(=O)NCC(=O)NCC(CNC(=O)CNC(=O)C(C)N1CCN(CC(=O)[O-])CCN(CC(=O)[O-])CCN(CC(=O)[O-])CC1)(CNC(=O)CNC(=O)C(C)N1CCN(CC(=O)[O-])CCN(CC(=O)[O-])CCN(CC(=O)[O-])CC1)CNC(=O)CNC(=O)C(C)N1CCN(CC(=O)[O-])CCN(CC(=O)[O-])CCN(CC(=O)[O-])CC1)N1CCN(CC(=O)[O-])CCN(CC(=O)[O-])CCN(CC(=O)[O-])CC1.[Gd+3].[Gd+3].[Gd+3].[Gd+3] (stereo not shown) | – | – | cynomolgus monkey, cerebellum | dose not given, day 58, PK group | – | lanthanide tissue concentration | < 0.007 nmol/g
CC(C)[C@@H](CN1CC[C@@](C)(c2cccc(O)c2)[C@@H](C)C1)NC(=O)[C@H]1Cc2ccc(O)cc2CN1 | – | – | Sprague-Dawley rat, plasma | intraperitoneal, 3 mg/kg | – | AUCtotal | 0.787 µg·h/mL
Cn1cnc2c(F)c(Nc3ccc(Br)cc3Cl)c(C(=O)NOCCO)cc21 | – | – | human, plasma | oral, dose not given, transit compartment absorption | – | central volume of distribution | 38 L
N#C[C@@]1(c2ccc3c(N)ncnn23)O[C@H](CO)[C@@H](O)[C@H]1O | – | plasma protein binding | rat plasma | 1 µM | – | bound fraction | 0.0294
C=CC(=O)N1CCC([C@@H]2CCNc3c(C(N)=O)c(-c4ccc(Oc5ccccc5)cc4)nn32)CC1 | – | – | Sprague-Dawley rats, plasma | oral, 16 mg/kg, together with: posaconazole 40 mg/kg | – | t1/2 | 2.77 ± 0.34 h
[11CH3]Oc1cccc(CCc2cc(O)c(=O)[nH]n2)c1 | – | dynamic PET | Sprague-Dawley rat, brain | 0 to 60 min, baseline | – | peak brain uptake | ~0.2 SUV
CC(=O)N[C@@H](CS)C(=O)O | – | – | Sprague-Dawley rat, brain | dose not given | – | brain level | not detected
CCc1nc(C(N)=O)c(Nc2ccc(N3CCC(N4CCN(C)CC4)CC3)c(OC)c2)nc1NC1CCOCC1 | – | – | Japanese patients, plasma | oral, 20 mg, cycle 0 day -2, single dose, mean | – | AUC(0-24) | 0.242 µg·h/mL
COc1cc(N2CCC3(CCN(C)CC3)CC2)ccc1Nc1ncc(Cl)c(Nc2ccccc2P(C)(C)=O)n1 | – | population PK model | human | oral, final model | – | Ka | 1.06 h⁻¹
CCCCCCCCCCCCCCCC(=O)N[C@@H](CCC(=O)NCCCC[C@@H]1NC(=O)[C@H]([C@@H](C)CC)NC(=O)[C@@H](NC(=O)[C@@H]2CCCN2C(=O)[C@H](Cc2ccccc2)NC(=O)[C@H](Cc2c[nH]cn2)NC(=O)[C@@H](NC(=O)[C@H](CC(=O)O)NC(=O)CC(C)C)[C@@H](C)O)CSSC[C@@H](C(=O)N[C@@H](CCCCN)C(N)=O)NC(=O)CNC(=O)[C@H](CCCCN)NC(=O)[C@H](CO)NC(=O)[C@H](CCCNC(=N)N)NC(=O)[C@@H]2CCCN2C(=O)[C@H](CCC(=O)O)NC(=O)[C@H](Cc2ccccc2)NC1=O)C(=O)O | – | – | healthy volunteers, plasma | subcutaneous, 60 mg single, lyophilised formulation | – | Vz/F | 104 ± 84.8 L
O=C(O)c1cc(O)c2c(c1)C(=O)c1cccc(O[C@@H]3O[C@H](CO)[C@@H](O)[C@H](O)[C@H]3O)c1C2=O | HK-2 co-cultured with HepaRG | MTT | – | 33.33 µM, 24 h | relative to: untreated control | cell viability | 105 ± 9.96%
Cc1ccc([C@@H]2O[C@H](CO)[C@@H](O)[C@H](O)[C@H]2O)cc1Cc1ccc(-c2ccc(F)cc2)s1 | – | refers to: inorganic phosphorus | Japanese type 2 diabetes patients | 400 mg, day 16, 24 h urine collection | relative to: baseline | urinary phosphate excretion change | 36.1 mg
FC(F)(F)c1ccc(CNc2ccc(Cc3c[nH]c4ncc(Cl)cc34)cn2)cn1 | – | refers to: Pruritus | patients with advanced solid tumours, non-TGCT cohort | oral, 1000 mg/day, any grade | – | treatment-related adverse events | 6%
CC(C)(C(=O)N1CCOc2c(C#N)cncc2C1)C(F)F | – | refers to: Arthralgia | human | oral, 20 mg once daily, 14 days, multiple ascending dose | – | subjects with adverse event | 0%
COc1c(O)c(C)cc2c1C(=O)c1c(ccc(O)c1O)C2=O | HK-2 co-cultured with HepaRG | MTT | – | 33.33 µM, 24 h | relative to: untreated control | viability | 83.9 ± 8.27%
Oc1ccc(/C=C/c2cc(O)cc(O)c2)cc1 | – | – | rat, azoxymethane-injected, blood at sacrifice | 100 mg/kg | – | alkaline phosphatase | 302 IU/L and 316 IU/L and 470 IU/L

Excerpt of the above:
Structure (SMILES) | target or system | assay | system | conditions | how to read | quantity | value
COc1c(O)c(C)cc2c1C(=O)c1c(ccc(O)c1O)C2=O | HK-2 co-cultured with HepaRG | MTT | – | 33.33 µM, 24 h | relative to: untreated control | viability | 83.9 ± 8.27%
